Published values from different studies.
Each line is one published result; not all experiments were run side by side. Values joined by “and” are separate records of one study, mostly repeats; a detail may differ. ± gives the spread as reported.
Target: Cytochrome P450 3A4 (CYP3A4, Homo sapiens, UniProt P08684)
Chain of UniProt P08684 (whole entry, looked up): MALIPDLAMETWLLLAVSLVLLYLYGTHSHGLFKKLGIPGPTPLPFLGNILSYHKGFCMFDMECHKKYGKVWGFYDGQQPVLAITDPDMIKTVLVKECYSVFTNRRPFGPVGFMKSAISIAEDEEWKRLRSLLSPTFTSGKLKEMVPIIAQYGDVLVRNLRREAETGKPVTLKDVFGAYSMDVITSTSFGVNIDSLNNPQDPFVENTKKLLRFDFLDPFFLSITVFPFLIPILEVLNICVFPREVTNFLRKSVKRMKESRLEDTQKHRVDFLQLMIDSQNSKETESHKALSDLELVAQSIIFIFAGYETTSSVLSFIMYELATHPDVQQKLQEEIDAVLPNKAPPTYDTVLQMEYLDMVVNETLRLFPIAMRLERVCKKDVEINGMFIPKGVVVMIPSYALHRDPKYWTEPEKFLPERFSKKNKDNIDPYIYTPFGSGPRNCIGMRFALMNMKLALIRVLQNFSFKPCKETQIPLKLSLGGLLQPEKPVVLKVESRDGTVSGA

Compound | assay | system | conditions | scale | quantity | result
Cc1cc(C)c(CNC(=O)c2cc(Cl)c3c(c2C)O[C@@](C)([C@H]2CC[C@H](N(C)C)CC2)O3)c(=O)[nH]1 |  | recombinant human CYP3A4 | 0 and 30 min |  | CLint | 0.342 µL/min/pmol
NC(=O)NC1CCC(CCN2CCN(c3cccc(Cl)c3Cl)CC2)CC1 (centres unmarked) |  | human | oral, dose not given, outlier subject excluded, with: erythromycin | baseline: compound alone | AUC(tau) increase | 52%
C=CC(=O)N(C)CCOc1c(N)ncnc1-c1cc(F)cc(NC(=O)c2ccc(C3CC3)cc2F)c1C |  | recombinant enzyme | pH 7.4 |  | Vmax | 16.3 min⁻¹
Cc1cc(Nc2ncnc3ccc(NC4=NC(C)(C)CO4)cc23)ccc1Oc1ccn2ncnc2c1 |  | human, plasma | oral, 300 mg, day 1, single dose alone |  | AUC(0-last), geometric mean | 3320 ng·h/mL
Cn1cncc1[C@@](N)(c1ccc(Cl)cc1)c1ccc2c(c1)c(-c1cccc(Cl)c1)cc(=O)n2C |  | human liver microsomes |  |  | share of metabolism by CYPs | 39.4%
CCC(C)n1ncn(-c2ccc(N3CCN(c4ccc(OCC5COC(Cn6cncn6)(c6ccc(Cl)cc6Cl)O5)cc4)CC3)cc2)c1=O (centres unmarked) |  | human, both sexes, plasma | oral, 200 mg, multiple doses, with: pirtobrutinib |  | Tmax | 3 h
O=C(O)c1cc(-c2ccc(-c3cc[nH]n3)cc2)c2ccc(-c3ccc(C(F)(F)F)cc3)cc2c1 |  |  | 10 µM |  | inhibition | no inhibition
CC[C@H]1[C@@H](O)[C@@H]2[C@H](CC[C@]3(C)[C@@H]([C@H](C)CCNC(=O)NS(=O)(=O)c4ccc(C(C)(C)C)cc4)CC[C@@H]23)[C@@]2(C)CC[C@@H](O)C[C@@H]12 | substrate | human, plasma | 10 mg, alone, study day 1 |  | elimination rate constant geometric mean | 0.0667 h⁻¹
O=C(CCCCCCC(=O)Nc1ccccc1)NO | inhibitor, Vivid fluorescent | recombinant enzyme | tested 0.47 to 60 µM |  | IC50 | no inhibition
CCCCC1=NC2(CCCC2)C(=O)N1Cc1ccc(-c2ccccc2S(=O)(=O)Nc2noc(C)c2C)c(COCC)c1 | substrate | recombinant human CYP |  |  | fraction metabolized | 81.3%
CSc1ccccc1C(=O)NCCn1cc(C(=O)NCc2cccc(C)n2)c(=O)c2cc3c(cc21)OCO3 | enzyme activity, inhibitor | human liver microsomes | 20 min, no NADPH preincubation, with: testosterone 50 µM |  | IC50 | 43.1 µM
CN(C(=O)n1cnc(-c2ccc[n+]([O-])c2)c1)C1CCCCC1 | inhibitor | pooled human liver microsomes | concentration not given, 30 min pre-incubation, without cofactor |  | time-dependent inhibition | no effect
C=CC(=O)Nc1cc(Nc2nccc(-c3cn(C)c4ccccc34)n2)c(OCC(F)(F)F)nc1N(C)CCN(C)C | substrate depletion | recombinant human CYP | 1 µM |  | intrinsic clearance | 3.79 µL/min/pmol
C=C(F)C(=O)N1CCN(c2nc(OC[C@@H]3CCCN3C)nc3c2CCN(c2cccc4cccc(Cl)c24)C3)C[C@@H]1CC#N |  | healthy volunteers, plasma | 200 mg, alone, median |  | Tmax | 6 h
Cc1cc(Nc2ncnc3ccc(NC4=NC(C)(CO)CO4)cc23)ccc1Oc1ccn2ncnc2c1 (centres unmarked) |  | human, plasma | tucatinib, day 6, with: itraconazole |  | half-life (arithmetic mean) | 14.3 h
CSc1ccccc1C(=O)NCCn1cc(C(=O)NCc2cccc(C)n2)c(=O)c2cc3c(cc21)OC(F)(F)O3 | enzyme activity, inhibitor | human liver microsomes | 20 min, 30 min NADPH preincubation, with: testosterone 50 µM |  | IC50 | 4.87 µM
Cc1nc2c([nH]1)c(=O)n(C)c(=O)n2Cc1ccco1 | enzyme activity, inhibitor |  | 40 µM |  | inhibition | -22%
CCCCCC/C=C1\C=C(C(F)(F)F)c2cc3c(cc21)OCO3 | enzyme activity, inhibitor | pooled human liver microsomes | concentration not given, 30 min, 37 °C, with: midazolam |  | inhibition | no inhibition
CNC(=O)NC1CCC(CCN2CCN(c3cccc(Cl)c3Cl)CC2)CC1 (centres unmarked) |  | human | oral, dose not given, outlier subject excluded, with: erythromycin | baseline: compound alone | AUC(tau) increase | 8%
Cc1cccc(F)c1N1CCC(N2Cc3cn(CC(C)(F)F)nc3N(Cc3ccccc3C(F)(F)F)C2=O)CC1 | testosterone 6β-hydroxylation |  |  |  | IC50 | > 10 µM
CC(=O)C(C)n1ncn(-c2ccc(N3CCN(c4ccc(OC[C@H]5CO[C@](Cn6cncn6)(c6ccc(Cl)cc6Cl)O5)cc4)CC3)cc2)c1=O (some centres unmarked) | inhibitor | human liver microsomes | with: testosterone |  | IC50 | 0.0057 µM
C[C@H]1CN(C2COC2)CCN1c1ccc(Nc2cc(-c3ccnc(N4CCn5c(cc6c5CC(C)(C)C6)C4=O)c3CO)cn(C)c2=O)nc1 | substrate | recombinant enzyme | 1 µM, 60 min |  | remaining compound | 29.3 ± 1.7%
C=CC(=O)Nc1cc(Nc2nccc(-c3cn(C)c4ccccc34)n2)c(OCC(F)(F)F)nc1N(C)CCNC | substrate, recombinant enzyme |  |  |  | fraction metabolized | 83.3% and 83.2%
O=C(NCCN1CCCC1)c1cc(-c2ccc(CN3CCOCC3)cc2)nc2ccc(F)cc12 |  | pooled human liver microsomes | metabolism-dependent inhibition, with: midazolam | baseline: IC50 without over with preincubation | IC50 shift ratio | 1 and > 1.2 and > 1.9
COc1ccc(F)cc1C(=O)NCc1ccc(-c2nn([C@@H](C)C(F)(F)F)c(N)c2C(N)=O)cc1 | time-dependent inhibitor | human liver microsomes |  |  | kinact | 0.000678 s⁻¹
N#C[C@H](C[C@@H]1CCCNC1=O)NC(=O)[C@H](CC1CC1)NC(=O)c1cc2cccc(Cl)c2[nH]1 | enzyme activity, time-dependent inhibitor | human liver microsomes | with: midazolam 1'-hydroxylation |  | kinact | 0.00103 s⁻¹
